Measurements from different studies.
A part holds a random share of what one study measured.

Block 1
Target: Histone acetyltransferase KAT6A, winged helix 2, GST fusion (KAT6A, Homo sapiens, UniProt Q92794, residues 85-181)
Method: protein binding microarray
Molecule type: double-stranded DNA, one strand shown
Matrix: in vitro
Concentration: not given
Setting: 8-mer, flanks averaged, mean of 2 arrays, mostly near background
Baseline: not given
Reading: higher = stronger binding
Target sequence (chain): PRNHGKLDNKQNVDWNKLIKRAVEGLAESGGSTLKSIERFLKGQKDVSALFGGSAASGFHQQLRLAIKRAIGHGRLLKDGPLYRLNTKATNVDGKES
| Sequence | E-score |
| --- | --- |
| ACTGCTTA | -0.0118 |
| AATTGCGT | 0.0444 |
| ATGTGGTA | -0.0442 |
| ATTCACCA | 0.0746 |
| AGCATTGC | 0.0822 |
| AGTACCGC | -0.0915 |
| CAGGACGG | 0.0962 |
| CGTCCTAA | -0.142 |
| TAAATCTA | 0.0924 |
| CTGGACGA | -0.144 |
| ACCGAACC | -0.00184 |
| CGAACGGA | 0.0539 |
| CAACAATC | 0.019 |
| AGCTCTTG | -0.0392 |
| CAGCCCGG | 0.259 |
| AATTACAC | -0.00769 |
| AGATCATC | -0.0485 |
| CAGGGGTA | -0.148 |

Block 2
Target: RNA binding protein fox-1 homolog 2, RRM domain, GST-SBP tag (RBFOX2, Homo sapiens, UniProt O43251-10, residues 100-194)
Method: RNA Bind-n-Seq
Molecule type: RNA
Matrix: in vitro
Concentration: 365 nM
Setting: natural RNA segment, single round, ends assumed
Baseline: no-protein control
Reading: higher = stronger binding
All sequences stand within: GGGAGUUCUACAGUCCGACGAUC … UGGAAUUCUCGGGUGCCAA
Residues (chain): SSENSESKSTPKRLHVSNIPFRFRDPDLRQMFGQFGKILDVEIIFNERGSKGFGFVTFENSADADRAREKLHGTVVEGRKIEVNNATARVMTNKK
| Sequence | RBNS enrichment (R) |
| --- | --- |
| GAGCAGCAGAGCAGCAGGACAUGGCCAACAAAGCGUGCUUUCUGAGGACGUGGAGAGUGGCAGUGACGAAGGUCAUUUGUUUUCAGGGAGGUAGGGUUUAAAGACCCCCA | 0.311 |
| AAAGUUUGAGAUUAUCCUAGGCUACAUAGCAAGGUGAUUUCAAGAAAGAGAUGAAGGAAGGAAGGAAGAGAAAAACAAAGUCAUUUGUUCAUAGUGAGGUCUCCAGCUAU | 0.31 |
| CCUUUCAUUUAGCUACUUCAAAUAAUGUUAUCCACCUCCUGUCUCACAGCAGUGGGUACAGCCUGUGUGGGCGCAGGUGGUCCCUUUUCUGUGCCCUGACAAGUAGACUG | 0.704 |
| UCUUAUAUUGUAGGCAUUUCUCAAGUGUUUUAGAUAUUAAUAACUAACAUUGGGAUUUUACUUUGCCAGCCCCAGCCUUCAGAACUCCAUUGUCAUAGUACACCUGUAAA | 0.418 |
| UUUAUUACAUUGAAGAAACUAAAACAUAAAUGAAAAGAAACACUAGGUUCCUGCACUUUUUGGUAACUUUAUGUCUAGCAAAUAUUUUAUGCCAAGAAAAGCAUACUAUA | 0.521 |
| AUGGCAACUGAGAUUCUAAGCUCUCUUUGUCUCAUCCAGGCAACUUUUCUGUCUCCCAACCAAGGAAUUCCUCUGCUCAGGCUCCUGUUGCCCAGGAUAGCUCUCUUCUA | 0.277 |
| UGAUUAGAAGCACAGAAUGAUCAGGCCUUUAGAGCGAUGGAAUGGCCAUUGUCAUAGCACAGAGAUUUCAGAAGCACCUGCAGGUGGCUUGCUUGGGAUGUUGCUGUCCC | 2.43 |
| UAAACAUACAUAAUACAAUGUAACUCCACUGUUCUCCUGAAUAUUUUUUGCUCUAAUCUCUCUGCCGAAAGUCAAAGUGAUGGGAGAAUUGGUAUACUGGUAUGACUACG | 0.281 |

Block 3
Target: TAR DNA-binding protein 43, full length, His tag (TARDBP, Homo sapiens, UniProt Q13148, residues 1-414)
Method: RNA Bind-n-Seq
Molecule type: RNA
Matrix: in vitro
Concentration: 20 nM
Setting: 6-mer, flanks averaged, single round
Together with: 150 mM KCl
Baseline: input library
Reading: higher = stronger binding
| Sequence | 6-mer enrichment (R) |
| --- | --- |
| GGCCCC | 0.87 |
| UCGGCA | 0.834 |
| UGGACC | 0.842 |
| CAAAGA | 0.661 |
| UUAGAC | 0.607 |
| CUGCCG | 0.809 |
| AGUGAC | 0.815 |
| ACAACC | 0.615 |
| GUAGCA | 0.884 |
| AGUAUA | 0.684 |
| AGUAGC | 0.813 |
| AUCGUG | 0.792 |
| AUAGAA | 0.734 |
| CCUAGA | 0.65 |
| UGGGGC | 3.8 |
| CCCCGA | 0.685 |
| GAAGAG | 1.82 |
| AGGCGA | 1.49 |
| GGCAAU | 1.05 |

Mixed results
| Substance | target | test | system | conditions | how to read | quantity | value |
| --- | --- | --- | --- | --- | --- | --- | --- |
| PhoQ, residues 284 288 289 292 302 303 SLGVVW | PhoP, residues 12 14 15 18 19 QWHVF (Escherichia coli, UniProt P23836) | Sort-seq, measured: YFP reporter | E. coli | PhoQ-PhoP variant library, together with: 10 µM Mg2+ | baseline: high Mg2+ state, higher = stronger signaling | fold induction | 8.57 |

Excerpt of the above (block 3):
| Sequence | 6-mer enrichment (R) |
| --- | --- |
| UCGGCA | 0.834 |
| UGGACC | 0.842 |
| CAAAGA | 0.661 |
| UUAGAC | 0.607 |
| CUGCCG | 0.809 |
| AGUGAC | 0.815 |
